# Results from different studies.
# ± marks the error that the study gave.
# Organism: Salmonella typhimurium
Structure (SMILES),test,system,setting,how to read,endpoint,result
N#C[C@@]1(n2ccc(N)nc2=O)O[C@H](CO)[C@@H](O)[C@H]1O,,TA1537,"1.2 µM, without S9",,viability,91%
O=[N+]([O-])c1ccc(N2CCC(NCCC(O)c3ccc(F)c4ccccc34)CC2)c(C(F)(F)F)c1 (stereo not drawn),"SOS response, SOS/umu test","TA1535/pSK1002, TGA medium","0.000488 mg/mL, 4 h, with: 10% rat liver S9",reference: untreated,induction factor,1.2
CC(=O)N1CCC(C(=O)N2CCN3C(=O)c4cc(-c5ccccc5)ccc4NC(=O)C3C2)CC1 (stereo not drawn),,TA1535,"5.0 µg/plate, with: rat liver S9",,revertants per plate,15
CN(CC(C)(C)C)N=O,"mutagenicity, Ames plate incorporation",TA1535,"50 µg/plate, without S9, methanol",,revertant colonies per plate,25 ± 11
OC(CCN1CC=C(c2ccc(F)cc2)CC1)c1ccc(F)c2ccccc12 (stereo not drawn),SOS/umu test,TA1535/pSK1002,"0.063 mg/mL, 4 h, with S9, lower range",,survival,84.3%
COc1cccc(-c2n[nH]c(SCc3ccccn3)n2)c1OC,"Ames test, plate incorporation",TA100,"0.13 mg/plate, without S9",,revertant colonies per plate,108
O=NN1CCN(C2CCCC2)CC1,"mutagenicity, Ames plate incorporation",TA1535,"500 µg/plate, 3 d, without S9, methanol",,revertant colonies per plate,12.7 ± 6
Cc1cc(C(=O)NC(C)(C)COc2cccc3c2C(N)=NS(=O)(=O)N3)cc(C)n1,"Ames test, confirmatory",TA1535,3333 µg/plate,reference: solvent control,revertant ratio,0.8
Fc1ccc(C2=CCNCC2)cc1,SOS/umu test,TA1535/pSK1002,"0.063 mg/mL, 4 h, without S9, full range",,survival,94.5%
COCCN(CCOC)N=O,"mutagenicity, Ames plate incorporation",TA100,"50 µg/plate, 3 d, without S9, methanol",,revertant colonies per plate,127 ± 17
O=[N+]([O-])c1ccc(N2CCN(CCC(O)c3ccc(F)cc3)CC2)c(C(F)(F)F)c1 (stereo not drawn),SOS/umu test,TA1535/pSK1002,"0.008 mg/mL, 4 h, with S9, full range",,survival,80.4%
CC(C)N(C)N=O,"mutagenicity, Ames plate incorporation",TA1535,"2500 µg/plate, 3 d, without S9, methanol",,revertant colonies per plate,25.7 ± 7

# For quick reference, copied from above:
Structure (SMILES),test,system,setting,how to read,endpoint,result
COc1cccc(-c2n[nH]c(SCc3ccccn3)n2)c1OC,"Ames test, plate incorporation",TA100,"0.13 mg/plate, without S9",,revertant colonies per plate,108
